# Results from different studies.
# A part holds a random share of what one study measured.

# Study 1
# Target: Histamine H3 receptor (HRH3, Homo sapiens, UniProt Q9Y5N1)
# UniProt Q9Y5N1, sequence (whole entry, looked up): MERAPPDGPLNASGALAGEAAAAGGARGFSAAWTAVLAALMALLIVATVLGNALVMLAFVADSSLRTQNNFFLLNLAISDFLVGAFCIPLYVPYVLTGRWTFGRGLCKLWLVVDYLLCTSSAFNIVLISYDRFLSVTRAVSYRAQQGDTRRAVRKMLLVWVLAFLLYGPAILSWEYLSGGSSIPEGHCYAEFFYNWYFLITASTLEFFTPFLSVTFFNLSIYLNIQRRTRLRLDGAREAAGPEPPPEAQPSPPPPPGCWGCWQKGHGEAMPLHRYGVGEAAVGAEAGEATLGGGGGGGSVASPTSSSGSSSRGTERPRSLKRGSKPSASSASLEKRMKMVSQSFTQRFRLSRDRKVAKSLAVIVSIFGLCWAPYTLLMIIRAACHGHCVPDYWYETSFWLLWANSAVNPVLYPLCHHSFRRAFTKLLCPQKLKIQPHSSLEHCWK
# Effect on: binding
# Method: radioligand binding
# Tested at: 10 µM
Compound,inhibition
Cc1nc(N2CC[C@@H](O)C2)ncc1-c1cc(C(F)(F)F)cc2[nH]ncc12,28.6%
COc1nc2ccc([C@@](O)(c3ccccc3)C3CCN(C(C)=O)CC3)cc2c(Cl)c1Cc1ccc(-n2cccn2)cc1,0.46%
C[C@@]1(Cc2ccc(C#N)cc2)C(=O)N(c2cc(Cl)cc(Cl)c2)c2ncc(C(=O)NC3(c4nc(C5CCC5)no4)CC3)n21,20%
O[C@]1(C(F)(F)F)CCCC[C@H]1Nc1ccc(F)cc1,-12.8%
O=C(NC[C@@H]1[C@H]2CN(C(=O)OCc3cc(C(F)(F)F)cc(C(F)(F)F)c3)C[C@@H]12)c1ccc2[nH]nnc2c1,-5.26%
CC(C)(O)c1cncc(-c2nc3ccc(F)cc3n2C2CC2)c1,-4.55%
Cc1nc(Cc2cccc(C(F)(F)F)c2)sc1-c1ccc(C(N)=O)nc1,3.48%
Cc1cc(C)c(-n2ccn3nc(-c4cccnc4)cc23)cc1NC(=O)c1cc(C#N)cc(S(F)(F)(F)(F)F)c1,-5.88%
O=C(Nc1cccnn1)N1CCC(=Cc2cccc(Oc3ccc(C(F)(F)F)cn3)c2)CC1,8.73%
CC1=C(C#N)[C@@H](c2ccc3[nH]nc(C)c3c2)C(C#N)=C(c2ccc(Cl)cc2)N1,-19.6%
O=C(Nc1cnc(Oc2ccc(F)cc2)nc1)N1CCc2ncccc2[C@@H]1c1ccc(F)cc1,-8.41%
O=C(Nc1cccnn1)N1CC(CC=Cc2cncc(Oc3ccc(C(F)(F)F)cn3)n2)C1,17.3%
CN([C@@H]1CCc2c(CC(=O)O)c3cc(S(C)(=O)=O)ccc3n2C1)S(=O)(=O)c1ccc(F)cc1,-13.7%
Cc1c(N2CCCC2)nc2ccc(Br)cc2c1C(=O)NC[C@H](CCC(=O)O)c1ccccc1Cl,-15.7%
CCOCCn1cc(C(=O)Nc2ccc(-n3nc(-c4cccnc4)cc3C(F)(F)F)cn2)ccc1=O,25.3%
Cc1nc(C2CCN(C(=O)c3ccc(OC(F)(F)F)cc3N)CC2)c2ncc(N3CCN(C)CC3)cc2n1,38.4%
CN1C(=O)[C@@H](N2CCc3cn(Cc4ccccc4)nc3C2=O)COc2ccccc21,-19.6%
O=C([C@H]1C[C@H](O)CN1c1ccc(Cl)cc1)N1CC2COCC(C1)N2Cc1ccc(Cl)cc1,9.39%
C[C@@H]1CN(c2cc(-c3nn(C)c4ccc(OC5(C)CC5)cc34)ncn2)C[C@H](C)O1,-6.25%
CCOC(=O)c1cc2cc(-c3cc(C(=O)NCc4ccc(C(=O)O)cc4)nn3C)ccc2[nH]1,8.18%
COc1cccc(CNC(=O)c2nc3scc(COCc4ccc(C(=O)O)cc4)c3c(=O)[nH]2)c1,-9.59%

# Study 2
# Cell line: HaCaT
# Tested at: 100 µM
# Time: 60 h
SMILES,viability
CC(C)(S)C(N)C(=O)O (racemic),162%
NS(=O)(=O)Cc1noc2ccccc12,136%
NC[C@@H]1O[C@H](O[C@H]2[C@@H](O)[C@H](O[C@@H]3[C@@H](O)[C@H](N)C[C@H](N)[C@H]3O[C@H]3O[C@H](CO)[C@@H](O)[C@H](O)[C@H]3N)O[C@@H]2CO)[C@H](N)[C@@H](O)[C@@H]1O,135%
CC(CN(C)C)CN1c2ccccc2CCc2ccccc21 (stereo not drawn),107%
O=C1Nc2ccc(Cl)cc2[C@@](C#CC2CC2)(C(F)(F)F)O1,17.4%
NS(=O)(=O)c1cc2c(cc1Cl)NCNS2(=O)=O,127%
CCN(CC)CCc1nc(-c2ccccc2)no1,17.4%

# Study 3
# Target: Serine/threonine-protein kinase pim-3 (PIM3, Homo sapiens, UniProt Q86V86)
# Effect on: enzyme activity
# Mode: inhibitor
# Tested at: 0.5 µM
# Reference: control
SMILES,remaining activity [%]
CC[n+]1c(/C=C/N(C)c2ccccc2)n(-c2ccccc2)c2ccc(-c3nc4ccccc4s3)cc21,98.8
CSc1nc(-c2ccnc(N[C@@H](C)c3ccccc3)c2)c(-c2ccc(F)cc2)[nH]1 (racemic),95.5
N#CC(=C(N)Sc1ccc(N)cc1)c1ccccc1C(F)(F)F,111
COc1ccc(S(=O)(=O)N(CCO)c2ccccc2CN(C)CC=Cc2ccc(Cl)cc2)cc1,105
Nc1nc(Nc2ccc(S(N)(=O)=O)cc2)nn1C(=O)c1c(F)cccc1F,102
CC(C)(C)n1nc(Cc2cccc3ccccc23)c2c(N)ncnc21,99.4
Cc1ccc(NC2=CC(=O)c3sc(C)nc3C2=O)cc1,108
O=C1Cc2c([nH]c3ccc([N+](=O)[O-])cc23)-c2ccccc2N1,62.3
O=S(=O)(NCCNC/C=C/c1ccc(Br)cc1)c1cccc2cnccc12,98.3
Nc1ncnc2c1cnn2-c1ccccc1,91.4
CC#CC(=O)Nc1cc2c(Nc3ccc(F)c(Cl)c3)ncnc2cn1,89.1
Oc1ccc(Nc2nc(-c3ccc(Cl)cc3)cs2)cc1,114
CCc1[nH]c(-c2ccc(OC)cc2)nc1-c1ccncc1,112
O=C1NC(=O)C(c2c[nH]c3ccccc23)=C1c1c[nH]c2ccccc12,32.7
Cc1cc(Nc2nc(-c3ccccc3)nc3ccccc23)n[nH]1,130
CC(=O)c1ccc(N2CCOCC2)cc1O,115
Cc1cncc2cccc(S(=O)(=O)N3CCCN(C(=O)CN)C[C@@H]3C)c12,103
Nc1nccc(-c2c(-c3ccc(F)cc3)ncn2C2CCNCC2)n1,96
CCCC(=O)Oc1ccc2[nH]c(C(=O)c3cc4ccccc4[nH]3)cc2c1,84.5
Fc1ccc(-c2nc3n(c2-c2ccncc2)CCS3)cc1,105
NC(=O)c1ccc(N(C(N)=O)c2c(F)cccc2F)nc1-c1ccc(F)cc1F,97.7

# Study 4
# Host: mouse
# Matrix: microsomes or S9
# Tested at: 2 µM
# Time: 0.5 h
Compound,remaining compound [%]
COc1ccc(NC(=O)c2cc3c(=O)n4cc(C)ccc4nc3n2Cc2ccccc2)c(OC)c1,78
CN(C)c1ccc2c3c(ccc(N(C)C)c13)C(=O)OC2,45.2
CCOC(=O)C(C)(C)Cc1nc(-c2ccc(OCc3ccc(OC)cc3)cn2)no1,0.886
Cc1ccc(S(=O)(=O)Nc2ccc3nc(N4CCN(c5ccccc5)CC4)cc(C(=O)O)c3c2)cc1,63.4
COc1cccc(-c2nc3cc(Cl)ccc3c3ccnn23)c1,8.82
COc1cc(=O)n(C)cc1C(=O)N1CCN(c2ccc(C(F)(F)F)cn2)CC1,96.8
CCOC(=O)COc1ccc(-c2noc(-c3ccc(OCc4ccc(Br)cc4)cc3)c3cccc2-3)cc1,96.7
O=C(Cn1nc2c(cc1=O)CCCC2)Nc1nc(-c2ccc3c(c2)OCO3)cs1,55.2

# For quick reference, copied from above (study 4):
Compound,remaining compound [%]
Cc1ccc(S(=O)(=O)Nc2ccc3nc(N4CCN(c5ccccc5)CC4)cc(C(=O)O)c3c2)cc1,63.4
COc1cccc(-c2nc3cc(Cl)ccc3c3ccnn23)c1,8.82
COc1cc(=O)n(C)cc1C(=O)N1CCN(c2ccc(C(F)(F)F)cn2)CC1,96.8
